Published values of several laboratories.
Protocols differ between the studies behind these lines. Numbers after ± are the reported error.
Cell line: K562

| Structure (SMILES) | assay | conditions | scale | quantity | result |
| --- | --- | --- | --- | --- | --- |
| C[C@H]1[C@@H](O)O[C@@H]2O[C@@]3(C)CC[C@H]4[C@H](C)CC[C@@H]1[C@@]24OO3 | annexin V/PI flow cytometry, refers to: annexin V-/PI- | 3.2 µM, 24 h |  | viable cells | 94.7% |
| CSc1nc(-c2ccc(Cl)cc2)c2c(NC(=O)c3ccccc3)nnc-2[nH]1 | SRB | 10 µM, NCI60 single-dose screen | reference: untreated | cell growth | 87.3% |
| CCCN1CCN(c2ccc3nc(-c4ccc5nc(-c6cc(OC)ccc6OC)[nH]c5c4)[nH]c3c2)CC1 | SRB | 10 µM, 48 h |  | growth percent | -45.3% |
| O=C(Nc1nnc2[nH]c(=S)[nH]c(-c3ccc(Cl)cc3)c1-2)c1ccccc1 | SRB | 10 µM, NCI60 single-dose screen | reference: untreated | cell growth | 97.6% |
| CCCN1CCN(c2ccc3[nH]c(-c4ccc5[nH]c(-c6ccc(OCC)c(OCC)c6)nc5c4)nc3c2)CC1 | SRB | 10 µM, 48 h |  | growth percent | -5.53% |
| COc1ccc(OCc2ccc([N+](=O)[O-])cc2)cc1-c1c[nH]c2ncc(-c3cncc(C(=O)N(C)C)c3)cc12 | cell growth | hypoxia 1% O2 |  | GI50 | 0.216 µM |
| CCCN1CCN(c2ccc3[nH]c(-c4ccc5[nH]c(-c6cc(OC)c(OC)c(OC)c6)nc5c4)nc3c2)CC1 | SRB | 10 µM, 48 h |  | growth percent | 59.5% |
| CC1(C)CCC(CN2CCN(c3ccc(C(=O)NS(=O)(=O)c4ccc(NCC5CCOCC5)c([N+](=O)[O-])c4)c(Oc4cnc5[nH]ccc5c4)c3)CC2)=C(c2ccc(Cl)cc2)C1 | annexin V/PI flow cytometry, refers to: annexin V-/PI- | 3.2 µM, 24 h |  | viable cells | 95.7% |
| CCOC(=O)CSc1nc(-c2ccc(Cl)cc2)c2c(NC(=O)c3ccccc3)nnc-2[nH]1 | SRB | 10 µM, NCI60 single-dose screen | reference: untreated | cell growth | 82.6% |
| C=CC(=O)N1CCC[C@@H](n2nc(-c3ccc(Oc4ccccc4)cc3)c3c(N)ncnc32)C1 | cell viability, MTT | 24 h |  | IC50 | 63 ± 8.38 µM |
| Cc1cc(=O)[nH]n1-c1nc(-c2ccc(Cl)cc2)c2c(NC(=O)c3ccccc3)nnc-2[nH]1 | SRB | 10 µM, NCI60 single-dose screen | reference: untreated | cell growth | 89.5% |
| O=c1ccn(Cc2cn(-c3cc4ccccc4oc3=O)nn2)c(=O)[nH]1 | NCI60 single-dose screen | 10 µM |  | growth percentage | 102% |
| CCOc1ccc(-c2nc3cc(-c4nc5cc(N6CCN(C)CC6)ccc5[nH]4)ccc3[nH]2)cc1OCC | SRB | 10 µM, 48 h |  | growth percent | 12.8% |
| CCCC(CCC)C(=O)OCc1cn(-c2c3ccccc3nc3ccccc23)nn1 | NCI60 single-dose screen | 10 µM |  | growth percentage | 80.2% |
| Cc1n[nH]c(C)c1CSc1ccc(O)cc1 | cytotoxicity |  | reference: IC50 HEK293 over IC50 K562 | selectivity index | 1.4 |
| O=C(Nc1nnc2n3c(Cc4ccccc4)n[nH]c3nc(-c3ccc(Cl)cc3)c1-2)c1ccccc1 | SRB | 10 µM, NCI60 single-dose screen | reference: untreated | cell growth | 100% |
| CCCCN1CCN(c2ccc3[nH]c(-c4ccc5[nH]c(-c6ccc(OCC)c(OCC)c6)nc5c4)nc3c2)CC1 | SRB | 10 µM, 48 h |  | growth percent | -37.1% |
| NNc1nc(-c2ccc(Cl)cc2)c2c(NC(=O)c3ccccc3)nnc-2[nH]1 | SRB | 10 µM, NCI60 single-dose screen | reference: untreated | cell growth | 98.8% |
| C#C[C@@]1(O)[C@@H](CO)O[C@@H](n2ccc3c(N)ncnc32)[C@@H]1O | SRB | NCI-60 screen |  | TGI | > 100 µM |
| O=c1ccn(Cc2cn(-c3c4ccccc4nc4ccccc34)nn2)c(=O)[nH]1 | NCI60 single-dose screen | 10 µM |  | growth percentage | 33.1% |
| Cn1cncc1C1=CN(c2ncnc3[nH]cnc23)CCS1 |  | leukemia |  | TGI | > 200 µM |
| CCCCN1CCN(c2ccc3[nH]c(-c4ccc5[nH]c(-c6ccc(OCC)cc6)nc5c4)nc3c2)CC1 | SRB | 10 µM, 48 h |  | growth percent | -29.1% |
| O=C1NC(c2ccccc2)(c2ccccc2)C(=O)N1Cc1cn(-c2cc3ccccc3oc2=O)nn1 | NCI60 single-dose screen | 10 µM |  | growth percentage | 92.4% |
| C#C[C@@]1(O)[C@@H](CO)O[C@@H](n2cc(I)c3c(N)ncnc32)[C@@H]1O | SRB | NCI-60 screen |  | TGI | > 100 µM |
| Cc1cc(C)n(C(=S)[S][Au][PH](CCCCCC[PH]([Au][S]C(=S)n2nc(C)cc2C)(c2ccccc2)c2ccccc2)(c2ccccc2)c2ccccc2)n1 | cell growth, NCI-60 screen | leukemia |  | log10 TGI | -5.24 |

Some of these lines once more:
| Structure (SMILES) | assay | conditions | scale | quantity | result |
| --- | --- | --- | --- | --- | --- |
| C=CC(=O)N1CCC[C@@H](n2nc(-c3ccc(Oc4ccccc4)cc3)c3c(N)ncnc32)C1 | cell viability, MTT | 24 h |  | IC50 | 63 ± 8.38 µM |
| Cc1cc(=O)[nH]n1-c1nc(-c2ccc(Cl)cc2)c2c(NC(=O)c3ccccc3)nnc-2[nH]1 | SRB | 10 µM, NCI60 single-dose screen | reference: untreated | cell growth | 89.5% |
| O=c1ccn(Cc2cn(-c3cc4ccccc4oc3=O)nn2)c(=O)[nH]1 | NCI60 single-dose screen | 10 µM |  | growth percentage | 102% |
| CCOc1ccc(-c2nc3cc(-c4nc5cc(N6CCN(C)CC6)ccc5[nH]4)ccc3[nH]2)cc1OCC | SRB | 10 µM, 48 h |  | growth percent | 12.8% |
